{"data": "Published values gathered from unrelated publications", "note": "Protocols differ between the studies behind these lines. Numbers after ± are the reported error."}
{"SMILES": "CC1=CC(C)=[N+]2C1=C(CCCC(=O)NCCCC[C@H](NC(=O)N[C@@H](CCC(=O)O)C(=O)O)C(=O)O)c1c(C)cc(C)n1[B-]2(F)F", "medium": "acetonitrile/water", "measurement": "fluorescence lifetime", "result": "5.9 ± 0.1 ns"}
{"SMILES": "O=c1[nH]c(=O)n(C2OC(CO)C(O)C2O)cc1-n1nnc2c1CCC1C(CO)C1CC2 (mixture of isomers)", "method": "frequency-domain fluorometry", "medium": "methanol", "measurement": "fluorescence lifetime τ1", "result": "0.3 ns"}
{"SMILES": "COc1cc(OC)cc(C2=C3C(C)=C(I)C(/C=C/c4c[nH]c5ccccc45)=[N+]3[B-](F)(F)n3c(/C=C/c4c[nH]c5ccccc45)c(I)c(C)c32)c1", "medium": "THF", "reference": "methylene blue", "measurement": "fluorescence quantum yield", "result": 0.12}
{"SMILES": "Cc1ccc(-c2ccc(-c3cc4sccc4o3)cn2)nc1", "method": "TCSPC", "medium": "CHCl3", "measurement": "fluorescence lifetime", "result": "0.92 ns"}
{"SMILES": "COc1cc(OC)cc(C2=C3C(C)=C(I)C(C)=[N+]3[B-](F)(F)n3c(C)c(I)c(C)c32)c1", "medium": "DMSO", "measurement": "fluorescence quantum yield", "result": 0.03}
{"SMILES": "CC1=CC(C)=[N+]2C1=C(CCCC(=O)O)c1c(C)cc(C)n1[B-]2(F)F", "medium": "acetonitrile/water", "measurement": "fluorescence lifetime", "result": "6.3 ± 0.1 ns"}
{"SMILES": "COCCOCCOCCOCCOCCOCCOCCOCCC(=O)NCCCc1cc2cc3nc(cc4[nH]c(cc5nc(c(OC)c1[nH]2)C(=O)C5(C)C)cc4CCc1ccc(C(=O)O)cc1)CC3(C)C", "medium": "water", "tested at": "concentration not given", "reference": "DMF", "measurement": "fluorescence quantum yield reduction", "result": "61%"}
{"SMILES": "COc1cc(OC)cc(C2=C3C(C)=C(I)C(/C=C/c4c[nH]c5ccc([N+](=O)[O-])cc45)=[N+]3[B-](F)(F)n3c(/C=C/c4c[nH]c5ccc([N+](=O)[O-])cc45)c(I)c(C)c32)c1", "medium": "dichloromethane", "reference": "methylene blue", "measurement": "fluorescence quantum yield", "result": 0.02}
{"SMILES": "Nc1ncnc2c1nc(-n1nnc3c1CCC1C(CO)C1CC3)n2C1OC(CO)C(O)C1O (mixture of isomers)", "method": "frequency-domain fluorometry", "medium": "methanol", "measurement": "fluorescence lifetime τ1", "result": "0.1 ns"}
{"SMILES": "CN1CCC(C)(C)c2cc3c(-c4ccc(C(=S)N5CCCCC5)s4)c4ccc(=[N+](C)C)cc-4sc3cc21", "medium": "methanol", "with": "excitation 532 nm", "measurement": "fluorescence emission maximum", "result": "626 nm"}
{"SMILES": "CC1=CC(C)=[N+]2C1=C(CCCC(=O)NCC1CCC(C(=O)NC(Cc3ccc4ccccc4c3)C(=O)NCCCCC(NC(=O)NC(CCC(=O)O)C(=O)O)C(=O)O)CC1)c1c(C)cc(C)n1[B-]2(F)F (stereo not shown)", "medium": "acetonitrile/water", "measurement": "fluorescence lifetime", "result": "6.1 ± 0.1 ns"}
{"SMILES": "COc1cc(OC)cc(C2=C3C(C)=C(I)C(C)=[N+]3[B-](F)(F)n3c(/C=C/c4c[nH]c5ccc([N+](=O)[O-])cc45)c(I)c(C)c32)c1", "medium": "DMSO", "reference": "methylene blue", "measurement": "fluorescence quantum yield", "result": 0.19}
{"SMILES": "NCCC(=O)N1Cc2ccccc2-c2c(nnn2-c2nc(N)c3ncn(C4OC(CO)C(O)C4O)c3n2)-c2ccccc21 (mixture of isomers)", "method": "frequency-domain fluorometry", "medium": "methanol", "measurement": "fluorescence lifetime τ3", "result": "4.1 ns"}
{"SMILES": "COc1cc(OC)cc(C2=C3C(C)=C(I)C(C)=[N+]3[B-](F)(F)n3c(/C=C/c4c[nH]c5ccccc45)c(I)c(C)c32)c1", "medium": "DMSO", "reference": "methylene blue", "measurement": "fluorescence quantum yield", "result": 0.17}
{"SMILES": "CN1CCC(C)(C)c2cc3c(-c4ccc(C(=O)N5CCCCC5)s4)c4ccc(=[N+](C)C)cc-4sc3cc21", "medium": "methanol", "with": "excitation 532 nm", "measurement": "fluorescence emission maximum", "result": "626 nm"}
{"SMILES": "Nc1nc(-n2nnc3c2CCC2C(CO)C2CC3)nc2c1ncn2C1OC(CO)C(O)C1O (mixture of isomers)", "method": "frequency-domain fluorometry", "medium": "methanol", "measurement": "fluorescence lifetime τ2", "result": "1 ns"}
{"note": "For quick reference, copied from above:"}
{"SMILES": "O=c1[nH]c(=O)n(C2OC(CO)C(O)C2O)cc1-n1nnc2c1CCC1C(CO)C1CC2 (mixture of isomers)", "method": "frequency-domain fluorometry", "medium": "methanol", "measurement": "fluorescence lifetime τ1", "result": "0.3 ns"}
